{"data": "Results pooled from the literature", "note": "Lines come from different studies, so protocols differ. ± marks the error that the study gave.", "UniProt P20813, sequence (whole entry, looked up)": "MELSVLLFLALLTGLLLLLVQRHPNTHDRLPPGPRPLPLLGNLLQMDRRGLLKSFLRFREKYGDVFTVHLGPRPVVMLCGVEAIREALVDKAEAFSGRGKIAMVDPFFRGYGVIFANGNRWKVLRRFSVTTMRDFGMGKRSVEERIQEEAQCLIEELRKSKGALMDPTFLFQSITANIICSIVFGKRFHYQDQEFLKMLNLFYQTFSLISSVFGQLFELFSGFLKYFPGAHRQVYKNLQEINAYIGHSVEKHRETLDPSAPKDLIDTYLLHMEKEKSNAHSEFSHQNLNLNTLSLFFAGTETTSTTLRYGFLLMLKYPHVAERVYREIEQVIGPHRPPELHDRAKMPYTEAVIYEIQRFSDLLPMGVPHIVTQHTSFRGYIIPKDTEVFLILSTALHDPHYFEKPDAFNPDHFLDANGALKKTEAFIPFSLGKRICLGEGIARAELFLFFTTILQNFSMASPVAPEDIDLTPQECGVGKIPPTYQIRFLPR"}
{"SMILES": "CCCCCc1cc(O)c2c(c1)OC(C)(C)C1CCC(C)=CC21 (single isomer, unassigned; (-))", "target or system": "Cytochrome P450 2B6 (CYP2B6, Homo sapiens, UniProt P20813)", "test": "inhibitor", "system": "HEK cell microsomes", "conditions": "30 min preincubation without NADPH", "endpoint": "IC50", "value": "19 ± 5.1 µM"}
{"SMILES": "CN1CCN(C(=O)N[C@@H](Cc2ccccc2)C(=O)N[C@H](/C=C/S(=O)(=O)c2ccccc2)CCc2ccccc2)CC1", "target or system": "Vesicular stomatitis virus", "test": "viral entry", "system": "HEK-293T", "conditions": "pseudovirus", "endpoint": "IC50", "value": "> 0.1 µM"}
{"SMILES": "Cc1nc2n(n1)C(C)(O)C([N+](=O)[O-])=NN2 (centres unmarked)", "target or system": "unidentified influenza virus", "test": "viral replication", "system": "MDCK, H1N1", "conditions": "48 h", "endpoint": "IC50", "value": "472 µM"}
{"SMILES": "CC(=O)OC[C@H]1O[C@@H](NC(=O)NC(=O)[C@@H](C)Cc2ccc(C(C)C)cc2)[C@H](OC(C)=O)[C@@H](OC(C)=O)[C@@H]1OC(C)=O", "target or system": "human parainfluenza virus 3", "test": "viral cytopathicity", "system": "Vero", "endpoint": "IC50", "value": "45 µM"}
{"SMILES": "CCC1(O)C([N+](=O)[O-])=NNc2nc(C)nn21 (centres unmarked)", "target or system": "unidentified influenza virus", "test": "viral replication", "system": "MDCK, H1N1", "conditions": "48 h", "endpoint": "IC50", "value": "233 µM"}
{"SMILES": "N=C(N)NCCC[C@@H]1NC(=O)[C@H](CCCCNC(=O)CC[C@H](NC(=O)CCOCCOCCOCCOCCNC(=O)CN2CCN(CC(=O)O)CCN(CC(=O)O)CCN(CC(=O)O)CC2)C(=O)NCCCC[C@@H]2NC(=O)[C@@H](Cc3ccccc3)NC(=O)[C@H](CC(=O)O)NC(=O)CNC(=O)[C@H](CCCNC(=N)N)NC2=O)NC(=O)[C@@H](Cc2ccccc2)NC(=O)[C@H](CC(=O)O)NC(=O)CNC1=O [indium-111 labelled]", "system": "female athymic nude mice, spleen", "conditions": "intravenous, 3 µCi, 1 h, U-87 MG glioma xenograft", "endpoint": "tissue uptake", "value": "1.65 ± 0.13 %ID/g"}
{"SMILES": "O=C(CCC1CCN(c2cc(NC3CC3)ncn2)CC1)NCc1cccnc1", "target or system": "Cedar virus", "test": "viral replication, inhibitor", "system": "Vero C1008", "conditions": "48 h", "endpoint": "IC50", "value": "2.37 µM"}
{"SMILES": "CCCCCCCCC(=O)NCc1ccc(O)c(OC)c1", "target or system": "mAb 3-LD3", "test": "antibody binding, indirect competitive ELISA", "conditions": "with: coating antigen hapten 3-OVA", "endpoint": "IC50", "value": "1.46 ng/mL"}
{"SMILES": "O=C(CCc1nc(-c2ccc(N3CCCC3)cc2)no1)NCCCN1CCOCC1", "target or system": "Cedar virus", "test": "viral replication, inhibitor", "system": "Vero C1008", "conditions": "48 h", "endpoint": "IC50", "value": "1.58 µM"}
{"SMILES": "COC(=O)CCCC1C2CCCN3CCCC(CN1Cc1ccc(Cl)c(Cl)c1)C23 (centres unmarked)", "target or system": "Vesicular stomatitis virus", "test": "viral entry", "conditions": "VSV G pseudotyped HIV", "endpoint": "IC50", "value": "> 200 µM"}
{"SMILES": "CCOC(=O)c1nc2n(n1)C(C)(O)C([N+](=O)[O-])=NN2 (centres unmarked)", "target or system": "unidentified influenza virus", "test": "viral replication", "system": "MDCK, H1N1", "conditions": "48 h", "endpoint": "IC50", "value": "> 370 µM"}
{"SMILES": "O=C(O)CCCC1C2CCCN3CCCC(CN1Cc1ccc(Cl)c(Cl)c1)C23 (centres unmarked)", "target or system": "Vesicular stomatitis virus", "test": "viral entry", "conditions": "VSV G pseudotyped HIV", "endpoint": "IC50", "value": "> 200 µM"}
{"SMILES": "C=CC1CN(C(=O)NCC=CCSSSCC=CCNC(=O)N2CC(C=C)OC2=S)C(=S)O1 (centres unmarked)", "target or system": "unidentified influenza virus", "test": "viral replication", "system": "H3N2", "endpoint": "IC50", "value": "1.92 µM"}
{"SMILES": "COC(=O)CCCC1C2CCCN3CCCC(CN1C(=O)c1ccc(Cl)cc1)C23 (centres unmarked)", "target or system": "Vesicular stomatitis virus", "test": "viral entry", "conditions": "VSV G pseudotyped HIV", "endpoint": "IC50", "value": "> 200 µM"}
{"SMILES": "CCC1(O)C([N+](=O)[O-])=NNc2nc(C(F)(F)F)nn21 (centres unmarked)", "target or system": "unidentified influenza virus", "test": "viral replication", "system": "MDCK, H1N1", "conditions": "48 h", "endpoint": "IC50", "value": "> 357 µM"}
{"SMILES": "O=C(O)CCCC1C2CCCN3CCCC(CN1C(=O)c1ccc(Cl)cc1)C23 (centres unmarked)", "target or system": "Vesicular stomatitis virus", "test": "viral entry", "conditions": "VSV G pseudotyped HIV", "endpoint": "IC50", "value": "> 200 µM"}
{"SMILES": "N=C(N)NCCC[C@@H]1NC(=O)[C@H](CCCCNC(=O)CC[C@H](NC(=O)CCOCCOCCOCCOCCNC(=O)CC[C@H](NC(=O)CN2CCN(CC(=O)O)CCN(CC(=O)O)CCN(CC(=O)O)CC2)C(=O)NCCOCCOCCOCCOCCC(=O)N[C@@H](CCC(=O)NCCCC[C@@H]2NC(=O)[C@@H](Cc3ccccc3)NC(=O)[C@H](CC(=O)O)NC(=O)CNC(=O)[C@H](CCCNC(=N)N)NC2=O)C(=O)NCCCC[C@@H]2NC(=O)[C@@H](Cc3ccccc3)NC(=O)[C@H](CC(=O)O)NC(=O)CNC(=O)[C@H](CCCNC(=N)N)NC2=O)C(=O)NCCCC[C@@H]2NC(=O)[C@@H](Cc3ccccc3)NC(=O)[C@H](CC(=O)O)NC(=O)CNC(=O)[C@H](CCCNC(=N)N)NC2=O)NC(=O)[C@@H](Cc2ccccc2)NC(=O)[C@H](CC(=O)O)NC(=O)CNC1=O [indium-111 labelled]", "system": "athymic nude mice, female, U-87 MG glioma xenograft, bone", "conditions": "intravenous, 3 µCi, 4 h", "endpoint": "tissue uptake", "value": "1.46 ± 0.69 %ID/g"}
{"note": "Repeated from above:"}
{"SMILES": "CCC1(O)C([N+](=O)[O-])=NNc2nc(C(F)(F)F)nn21 (centres unmarked)", "target or system": "unidentified influenza virus", "test": "viral replication", "system": "MDCK, H1N1", "conditions": "48 h", "endpoint": "IC50", "value": "> 357 µM"}
{"SMILES": "COC(=O)CCCC1C2CCCN3CCCC(CN1Cc1ccc(Cl)c(Cl)c1)C23 (centres unmarked)", "target or system": "Vesicular stomatitis virus", "test": "viral entry", "conditions": "VSV G pseudotyped HIV", "endpoint": "IC50", "value": "> 200 µM"}
{"SMILES": "CCCCCCCCC(=O)NCc1ccc(O)c(OC)c1", "target or system": "mAb 3-LD3", "test": "antibody binding, indirect competitive ELISA", "conditions": "with: coating antigen hapten 3-OVA", "endpoint": "IC50", "value": "1.46 ng/mL"}
